Results pooled from the literature.
Protocols differ between the studies behind these lines. ± gives the spread as reported.

| Structure (SMILES) | cell line | test | conditions | IC50 |
| --- | --- | --- | --- | --- |
| CC(=O)[O-].Nc1ccc(C([O-])=NN=Cc2ccc(OCC(=O)Nc3ccc(Cl)cc3)cc2)cc1.O.O.O.[Cu+2] | WISH | cell growth or viability, MTT | 24 h | 43.3 µg/mL |
| C[C@]12CC/C(=N\OCCN3CCOCC3)C=C1CCC1C2CC[C@]2(C)/C(=C/c3ccccn3)CCC12 (stereo partly drawn) | G-361 | cell growth or viability, resazurin | 72 h | 11.4 µM |
| CO[C@@H]1[C@@H](O[C@@H]2O[C@H](C)[C@@H](O[C@H]3C[C@@](C)(O)[C@@H](OC(=O)CN4CCOCC4)[C@H](C)O3)[C@H](N(C)C)[C@H]2O)[C@@H](CC=O)C[C@@H](C)[C@@H](O[C@H]2CC[C@H](N(C)C)[C@@H](C)O2)/C=C/C=C/C[C@@H](C)OC(=O)C[C@H]1O | HGC-27 | cell growth or viability, CCK-8 | 72 h | 5.78 µM |
| Cn1cc(-c2cc(N3CCCCS3(=O)=O)ccc2N[C@H]2CC[C@H](C)CC2)c2cc[nH]c2c1=O (stereo in doubt) | Light II cells | GLI reporter gene, inhibitor | Hedgehog pathway | 0.00033 ± 0.00013 µM |
| CCCCCCC[C@@H](CC(=O)O)OC(=O)C[C@@H](CCCCCCC)O[C@@H]1O[C@@H](C)[C@H](O)[C@@H](O)[C@H]1O | H1299 | cytotoxicity, xCELLigence | 72 h | 191 ± 17.5 µM |
| COC(=O)[C@@H]1[C@@H](OC)[C@H](OC(=O)c2cc(OC)c(OC)c(OC)c2)C[C@@H]2CN3CC[C@]4(O[C@@H]3C(=O)[C@@H]21)C(=O)Nc1cc(OC)c(-c2ccc(C(F)(F)F)cc2)cc14 | CAPAN-1 | cell growth or viability, crystal violet | 72 h | 4.21 µM |
| Nc1cccc[n+]1CCCCC[n+]1ccccc1N | 3T3-L1 | cell viability, MTT | 72 h | > 100 µM |
| C=CCc1ccc(O)c(-c2cc(CC=C)ccc2OCCCCCCCCCC[P+](c2ccccc2)(c2ccccc2)c2ccccc2)c1 | G-361 | cell growth or viability, imaging | – | 0.22 µM |
| C[O][Pt-2]1([Cl])([Cl])([O]C(=O)CCC(=O)OCCOC(=O)CCC(=O)[O][Pt-2]2([Cl])([Cl])([O]C)[NH2+]CC[N+]2(C)C)[NH2+]CC[N+]1(C)C | CH1 | cell growth or viability, MTT | 96 h | 2.3 µM |
| CC1(C)CCC(CN2CCN(c3ccc(C(=O)NS(=O)(=O)c4ccc(NCC5COCCO5)c([N+](=O)[O-])c4)c(N4CCCOc5nc6[nH]ccc6cc54)c3)CC2)=C(c2ccc(Cl)cc2)C1 (stereo not drawn) | LOUCY | cell growth or viability, ATP luminescence | 24 h | 0.0055 µM |
| C=CC(=O)N1C[C@H](C)N(c2nc(OC[C@@]34CCCN3C[C@H](F)C4)nc3c(F)c(-c4ccc(F)c5sc(N)c(C#N)c45)c(C(F)(F)F)cc23)C[C@H]1C | KRAS G12C cell lines | refers to: pAKT | 4 h | < 0.01 µM |
| Cc1ccc(C(C)C)cc1.Cc1ncc(CO)c(C=NNC2=Nc3ccccc3-c3[nH]c4ccc(Br)cc4c3C2)c1O.[Cl-].[Cl][Ru+] | CH1 | cell growth or viability, MTT | 96 h | 1.5 µM |
| COc1cc2c(cc1C(C)=O)CCC1C(C)(C)c3nc(C)ncc3C[C@]21C (mixture of isomers) | TM3 | cell growth or viability, SRB | 24 h | > 100 µM |
| N=C(N/N=C/c1ccccc1)N/N=C/c1ccccc1 | IMR-90 | cell growth or viability, crystal violet | 72 h | 23.6 µM |
| COc1ccc2c(C)nc(Nc3nc(O)cc(-c4ccccc4)n3)nc2c1 | LDR | cell viability, MTS | 4 days | 2.4 µM |
| CCCCCCCCCCCCCCCCOc1c(O)cc(C(=O)O[C@@H]2Cc3c(O)cc(O)cc3O[C@@H]2c2cc(O)c(O)c(O)c2)cc1O | A-431 | cell growth or viability, CCK-8 | 24 h | 84.9 µM |
| COc1ccc(NC(=O)O[C@H]2[C@H](C)O[C@@H](O[C@H]3[C@H](N(C)C)[C@@H](O)[C@H](O[C@H]4[C@@H](CC=O)C[C@@H](C)[C@@H](O[C@H]5CC[C@H](N(C)C)[C@@H](C)O5)/C=C/C=C/C[C@@H](C)OC(=O)C[C@@H](O)[C@@H]4OC)O[C@@H]3C)C[C@@]2(C)O)cc1 | HGC-27 | cell growth or viability, CCK-8 | 72 h | > 50 µM |
| O=C(CSc1cccc[n+]1[O-])c1ccccc1Br | LDR | cell viability, MTS | 4 days | 2.2 µM |

Repeated from above:
| Structure (SMILES) | cell line | test | conditions | IC50 |
| --- | --- | --- | --- | --- |
| CCCCCCCCCCCCCCCCOc1c(O)cc(C(=O)O[C@@H]2Cc3c(O)cc(O)cc3O[C@@H]2c2cc(O)c(O)c(O)c2)cc1O | A-431 | cell growth or viability, CCK-8 | 24 h | 84.9 µM |
| COc1ccc(NC(=O)O[C@H]2[C@H](C)O[C@@H](O[C@H]3[C@H](N(C)C)[C@@H](O)[C@H](O[C@H]4[C@@H](CC=O)C[C@@H](C)[C@@H](O[C@H]5CC[C@H](N(C)C)[C@@H](C)O5)/C=C/C=C/C[C@@H](C)OC(=O)C[C@@H](O)[C@@H]4OC)O[C@@H]3C)C[C@@]2(C)O)cc1 | HGC-27 | cell growth or viability, CCK-8 | 72 h | > 50 µM |
